{"data": "Published values collected from several papers", "note": "Each line is one published result; not all experiments were run side by side. “And” joins repeats or separate records; there may be more than shown. ± marks the error that the study gave."}
{"SMILES": "CCn1cc(-c2cc(Cn3ccoc3=N)cc3c2CCN([C@@H](C)c2cc(OC)ccn2)C3=O)c(C(F)(F)F)n1", "tested on": "NCI-H322", "test": "cell growth, inhibitor", "conditions": "120 h", "endpoint": "EC50", "value": "> 30 µM"}
{"SMILES": "COc1ncccc1-c1cnc(N)c(Nc2ccc3[nH]ccc3c2)n1", "tested on": "HEK293T ATF4-FLuc reporter", "test": "ATF4 reporter gene, activator, luciferase reporter", "endpoint": "EC50", "value": "7.84 µM"}
{"SMILES": "O=C1c2cccc(O)c2C(=O)c2c(O)cc(CO)cc21", "tested on": "HK-2 co-cultured with HepaRG", "test": "MTT", "conditions": "16.67 µM, 48 h", "how to read": "relative to: untreated control", "endpoint": "viability", "value": "84 ± 2.89%"}
{"SMILES": "O=c1[nH]nc(OCCCc2ccc(Cl)cc2)c(NCc2cccnc2)c1Br", "tested on": "HEK293T", "test": "RNA-seq, item: CBX4 mRNA", "conditions": "10 µM, 6 h", "how to read": "relative to: vehicle", "endpoint": "log2 fold change", "value": 0.0372}
{"SMILES": "C=C1C[C@@]23CC[C@H]4[C@@](C)(CCC[C@@]4(C)C(=O)O[C@@H]4O[C@H](CO)[C@@H](O)[C@H](O)[C@H]4O)[C@@H]2CC[C@]1(O[C@@H]1O[C@H](CO)[C@@H](O)[C@H](O)[C@H]1O[C@@H]1O[C@H](CO)[C@@H](O)[C@H](O)[C@H]1O)C3", "tested on": "THP-1", "test": "pyroptotic LDH release", "conditions": "2 µM, 40 min, added: LPS then nigericin", "endpoint": "inhibition", "value": "-27.8%"}
{"SMILES": "CN(C)C(=O)n1cc(C(=O)c2ccn3c2CS[C@@H]3c2cccnc2)c2ccc(-c3ccc(F)cc3)cc21", "tested on": "HEK293T ATF4-FLuc reporter", "test": "ATF4 reporter gene, activator, luciferase reporter", "endpoint": "EC50", "value": "6.4 µM"}
{"SMILES": "CC(C)C[C@H](NC(=O)C[C@H](O)[C@H](CC(C)C)NC(=O)[C@H](Cc1c[nH]cn1)NC(=O)CNC(=O)[C@@H](NC(=O)[C@H](C)NC(=O)[C@H](Cc1c[nH]c2ccccc12)NC(=O)[C@H](CCC(N)=O)NC(=O)[C@@H](Cc1ccccc1)NC(=O)COCCOCCNC(=O)CCC(C(=O)O)N1CCN(CC(=O)O)CCN(CC(=O)O)CCN(CC(=O)O)CC1)C(C)C)C(N)=O (some centres unmarked) [lutetium-177 labelled]", "test system": "BALB/c nu/nu mice, brain", "conditions": "intravenous, 500 pmol, 1 h, added: PA 300 µg", "endpoint": "tissue uptake", "value": "0.02 ± 0.01 %ID/g"}
{"SMILES": "CC1=NN(c2ccc(C)c(C)c2)C(=O)/C1=N\\Nc1cccc(-c2cccc(C(=O)O)c2)c1O", "tested on": "THP-1", "test": "pyroptotic LDH release", "conditions": "2 µM, 40 min, added: LPS then nigericin", "endpoint": "inhibition", "value": "9.33%"}
{"SMILES": "Cn1cc(-c2ccc(-c3cncc(Cl)c3N3CCC4(CCNC4=O)CC3)cc2)cn1", "tested on": "COLO 205", "test": "gene expression, microarray, item: BACE1 mRNA", "conditions": "concentration not given, 2 h", "how to read": "relative to: untreated cells", "endpoint": "log2 fold change", "value": 6.8}
{"SMILES": "COc1cnc2cccc(N3CCc4c(cc(Cn5ccnc5C)cc4-c4cn(C)nc4C(F)(F)F)C3=O)c2c1", "tested on": "MDST8", "test": "cell growth, inhibitor", "conditions": "120 h", "endpoint": "EC50", "value": "> 30 µM"}
{"SMILES": "Cc1cc(C(C)(C)CC(C)(C)C)ccc1OCCOCC[N+](C)(C)Cc1ccccc1", "tested on": "HEK293T ATF4-FLuc reporter", "test": "ATF4 reporter gene, activator, luciferase reporter", "endpoint": "EC50", "value": "4.48 µM"}
{"SMILES": "O=C(CC(=O)C(F)(F)F)c1cccs1", "tested on": "THP-1", "test": "pyroptotic LDH release", "conditions": "2 µM, 40 min, added: LPS then nigericin", "endpoint": "inhibition", "value": "-7.32%"}
{"SMILES": "CCn1cc(-c2cc(Cn3ccnc3)cc3c2CCN([C@H](c2cc(OC)ccn2)C2CC2)C3=O)c(C(F)(F)F)n1", "tested on": "NCI-H322", "test": "cell growth, inhibitor", "conditions": "120 h", "endpoint": "EC50", "value": "> 30 µM"}
{"SMILES": "CCN(CCCCOC(=O)c1ccc(OC)c(OC)c1)C(C)Cc1ccc(OC)cc1 (centres unmarked)", "tested on": "THP-1", "test": "pyroptotic LDH release", "conditions": "2 µM, 40 min, added: LPS then nigericin", "endpoint": "inhibition", "value": "28.7%"}
{"SMILES": "COc1c(O)cc2c(c1O)C(=O)c1c(cc(C)c(O)c1OC)C2=O", "tested on": "HK-2 co-cultured with HepaRG", "test": "MTT", "conditions": "33.33 µM, 48 h", "how to read": "relative to: untreated control", "endpoint": "viability", "value": "79.6 ± 7.85%"}
{"SMILES": "COc1ccc2nc(-c3cc(N(C)C)ccn3)c(N(C)c3ccc(F)cc3)n2c1", "tested on": "Leishmania infantum", "test system": "MHOM/MA(BE)/67/ITMAP263", "conditions": "120 h", "how to read": "relative to: CC50 macrophages over EC50 amastigotes", "endpoint": "selectivity index", "value": 2.5}
{"SMILES": "Nc1ccncc1N", "tested on": "THP-1", "test": "pyroptotic LDH release", "conditions": "2 µM, 40 min, added: LPS then nigericin", "endpoint": "inhibition", "value": "7.32%"}
{"SMILES": "CC(C)(C)NC(=O)c1cncn1C1CCN(c2ccc(-c3nnc(C(F)(F)F)o3)cn2)CC1", "tested on": "HDMEC", "test": "qPCR, item: TSC22D2", "conditions": "concentration not given, unit not given", "how to read": "relative to: DMSO", "endpoint": "mRNA level", "value": 1.62}
{"SMILES": "O=C(C[C@@H](C(F)F)n1ccc(F)n1)N1CCC(O)(Cn2cnc3c(cnn3-c3ccc(F)cc3)c2=O)CC1", "tested on": "CHP-212 parental", "test": "annexin V/PI flow cytometry", "conditions": "0.3 µM, 48 h", "endpoint": "early apoptotic cells", "value": "25.6% and 28.6% and 29%"}
{"SMILES": "COc1cccc(N(C)C(=S)Oc2ccc3c(c2)CCCC3)n1", "tested on": "THP-1", "test": "pyroptotic LDH release", "conditions": "2 µM, 40 min, added: LPS then nigericin", "endpoint": "inhibition", "value": "-0.784%"}
{"SMILES": "Cn1cc(NC(=O)c2cc(NC(=O)c3ccc(/C=C/c4cnc5ccccc5c4)cc3)cn2C)cc1C(=O)NCCN1CCOCC1", "tested on": "HEK293T ATF4-FLuc reporter", "test": "ATF4 reporter gene, activator, luciferase reporter", "endpoint": "EC50", "value": "> 9.96 µM"}
{"SMILES": "CCc1c(-c2ccccc2)c(-c2ccccc2)nn1-c1ccccc1-c1cccc(OCC(=O)O)c1", "tested on": "mouse osteoclasts", "test": "RT-qPCR, item: Fcgr4", "conditions": "1 µM, unit not given, added: M-CSF plus RANKL", "how to read": "relative to: bone marrow macrophages", "endpoint": "mRNA level", "value": "1.42 and 1.31 and 1.32"}
{"SMILES": "O=C(/C=C/C=C/C=C/C1CCCCC1)NC1=C[C@@](O)(/C=C/C=C/C=C/C(=O)NC2=C(O)CCC2=O)[C@@H]2O[C@@H]2C1=O", "tested on": "HCC38", "test": "cell growth, CellTiter-Glo", "conditions": "78 h", "endpoint": "GI50", "value": "16.8 µM"}
